Measurements collected from several papers.
Lines come from different studies, so protocols differ. Numbers after ± are the reported error.
Organism: HIV-1

| SMILES | test | test system | conditions | scale | measurement | result |
| --- | --- | --- | --- | --- | --- | --- |
| N=C(N)NCCC[C@@H]1NC(=O)[C@H](Cc2ccc(O)cc2)NC(=O)[C@H](CO)N2CC[C@@H](C2=O)N2CC[C@H](NC(=O)[C@@H]3CCCN3C(=O)[C@H](Cc3ccc(O)cc3)NC1=O)C2=O | item: GagPol and Env mRNA | HeLa-CD4 | 10 µM, 24 h | – | nuclear to cytoplasmic mRNA ratio | no effect |
| CC(=O)N[C@@H](CS)C(=O)N[C@@H](CO)C(=O)N[C@@H](CO)C(=O)N[C@@H](Cc1c[nH]c2ccccc12)C(=O)N[C@@H](Cc1ccc(O)cc1)C(=O)N1CCC[C@H]1C(=O)N[C@@H](Cc1ccccc1)C(=O)N[C@@H](CO)C(=O)N[C@@H](CCC(N)=O)C(=O)N[C@@H](Cc1ccc(O)cc1)C(=O)N[C@@H](CCC(N)=O)C(=O)N[C@@H](Cc1c[nH]c2ccccc12)C(=O)N[C@@H](Cc1c[nH]c2ccccc12)C(=O)N[C@@H](CCCCN)C(N)=O | – | NL4-3 (X4) | concentration not given | – | neutralisation activity | active |
| CC[C@H](C)[C@H](NC(=O)[C@H](C)NC(=O)[C@H](CCC(=O)O)NC(C)=O)C(=O)N[C@H](C(=O)N[C@@H](CCCNC(=N)N)C(=O)NC1CCCC=CCCCC(C(=O)N[C@@H](CC(C)C)C(=O)N[C@@H](Cc2ccccc2)C(=O)N[C@H](C(=O)N[C@@H](Cc2c[nH]cn2)C(=O)N[C@@H](Cc2ccccc2)C(=O)N[C@@H](CCCNC(=N)N)C(=O)N[C@H](C(=O)NCC(N)=O)[C@@H](C)CC)[C@@H](C)CC)NC(=O)[C@H](CCC(N)=O)NC(=O)[C@H](CCC(N)=O)NC(=O)[C@H](CC(C)C)NC1=O)[C@@H](C)CC (stereo partly shown) | viral replication, luciferase reporter | MT-4, NL4-3 | – | – | active concentration | 10 µM |
| COc1ccc(-n2c(SCCCN3CCOCC3)nnc2[C@H](Cc2ccccc2)NC(=O)Cc2c(C)[nH]c3ccccc23)cc1 | – | MT-4, wild type | – | reference: CC50 over EC50 | selectivity index | 83 |
| Cl.Cl.Cl.Cl.Cl.Cl.Cl.Cl.Cl.Cl.Cl.Cl.NC[C@@H]1O[C@H](O[C@H]2[C@@H](O)[C@H](O[C@@H]3[C@@H](O)[C@H](N)C[C@H](N)[C@H]3O[C@H]3O[C@H](CN)[C@@H](O)[C@H](O)[C@H]3N)O[C@@H]2Cn2cc(CCCCCCc3cn(C[C@H]4O[C@@H](O[C@@H]5[C@@H](O)[C@H](N)C[C@H](N)[C@H]5O[C@H]5O[C@H](CN)[C@@H](O)[C@H](O)[C@H]5N)[C@H](O)[C@@H]4O[C@H]4O[C@@H](CN)[C@@H](O)[C@H](O)[C@H]4N)nn3)nn2)[C@H](N)[C@@H](O)[C@@H]1O | reverse transcriptase release | MT-2, NL4-3 | concentration not given, day 6 | reference: virus control | protection | ≥ 20% |
| CC(=O)CCC1C(=O)NC(C(C)C)C(=O)NC(Cc2cc(O)cc(F)c2)C(=O)N2CCCC(N2)C(=O)OC(C(C)=CC=CC(=O)N2CCCCO2)CC=CC=CC(O)C(C)C1O (stereo not shown) | viral replication | CD4 HeLa | – | – | maximal inhibition | > 95% |
| Cc1nc([C@H](NC(=O)c2ccc(-c3ccc(Cl)cc3)[nH]2)[C@@H]2CCCCN2)sc1CO | viral entry | TZM-bl, panel of 56 Env pseudoviruses | up to 2 µM | – | sensitive viruses | 68% |
| Cc1cccc(-c2cc(C#N)cc(Oc3c(C(F)(F)F)ccn(Cc4n[nH]c(=O)n4C)c3=O)c2)c1 | – | MT4, wild type | – | reference: CC50 over EC50 | selectivity index | 2020 |
| CC(C)N1CCn2cc(C(=O)NCc3ccc(F)cc3F)c(=O)c(O)c2C1=O | single-round infection | – | integrase G140S/Q148R vector | reference: cpd over cabotegravir | antiviral potency ratio | > 36 |
| COc1ccc2c(c1)OCCCC=CCCCCN(CC(O)C(Cc1ccccc1)NC(=O)OC1COC3OCCC13)S2(=O)=O (mixture of isomers) | viral replication | PHA-stimulated PBMC, MDR/JSL R5 | – | – | IC50 | 0.21 ± 0.032 µM |
| Cc1ccc2c(N)c(C(=O)Nc3cccc(C(F)(F)F)c3)sc2n1 | – | CEM-SS, RF | – | reference: highest non-toxic concentration over EC50 | minimal selectivity index | ≥ 36 |
| CN1CCn2cc(C(=O)NCc3ccc(F)cc3F)c(=O)c(O)c2C1=O | single-round infection | – | integrase G140S/Q148H vector | reference: cpd over dolutegravir | fold loss of potency | ~17 fold |
| Cl.Cl.Cl.Cl.Cl.Cl.Cl.Cl.Cl.Cl.Cl.Cl.NC[C@@H]1O[C@H](O[C@H]2[C@@H](O)[C@H](O[C@@H]3[C@@H](O)[C@H](N)C[C@H](N)[C@H]3O[C@H]3O[C@H](CN)[C@@H](O)[C@H](O)[C@H]3N)O[C@@H]2Cn2cc(-c3ccc(-c4cn(C[C@H]5O[C@@H](O[C@@H]6[C@@H](O)[C@H](N)C[C@H](N)[C@H]6O[C@H]6O[C@H](CN)[C@@H](O)[C@H](O)[C@H]6N)[C@H](O)[C@@H]5O[C@H]5O[C@@H](CN)[C@@H](O)[C@H](O)[C@H]5N)nn4)cc3)nn2)[C@H](N)[C@@H](O)[C@@H]1O | HIV cytopathic effect, neutral red | MT-2 | – | – | maximum protection | 33% |
| CC[C@H](C)[C@H](N)C(=O)N[C@@H](CO)C(=O)N[C@@H](Cc1ccccc1)C(=O)N[C@@H]1CSCc2ccc(cc2)-c2ccc(cc2)CSC[C@@H](C(=O)N[C@@H](CCC(=O)O)C(=O)N[C@@H](CO)C(=O)NCC(=O)N[C@@H](CO)C(N)=O)NC(=O)[C@H](Cc2ccc(O)cc2)NC(=O)[C@H](Cc2ccc(O)cc2)NC(=O)[C@H](CC(=O)O)NC(=O)[C@H](CC(C)C)NC(=O)[C@H](CC(C)C)NC(=O)[C@H](CCC(=O)O)NC1=O | viral entry, single-cycle pseudovirus | Env Du156, subtype C | – | – | IC50 | 17.9 ± 1.7 µM |
| CC(=O)N[C@@H](CS)C(=O)N[C@@H](CO)C(=O)N[C@@H](CO)C(=O)N[C@@H](Cc1c[nH]c2ccccc12)C(=O)N[C@@H](Cc1ccccc1)C(=O)N1CCC[C@H]1C(=O)N[C@@H](Cc1ccccc1)C(=O)N[C@@H](CO)C(=O)N[C@@H](CCC(N)=O)C(=O)N[C@@H](Cc1ccc(O)cc1)C(=O)N[C@@H](CCC(N)=O)C(=O)N[C@@H](Cc1c[nH]c2ccccc12)C(=O)N[C@@H](Cc1c[nH]c2ccccc12)C(=O)N[C@@H](CCCCN)C(N)=O | – | YU2 pseudovirus (R5) | concentration not given | – | neutralisation activity | active |
| O=P(O)(O)Oc1c2c(c(OP(=O)(O)O)c3c1C1CC3c3cc4ccccc4cc31)C1CC2c2cc3ccccc3cc21 | inhibitor | TZM-bl | 20-fold molar excess, with: PAP85-120 and SEM1 fibrils | – | enhancement of infection | inactive |
